Measured values collected from several papers.
A part holds a random share of what one study measured.
Sequence of UniProt P10721 (whole entry, unmodified, looked up): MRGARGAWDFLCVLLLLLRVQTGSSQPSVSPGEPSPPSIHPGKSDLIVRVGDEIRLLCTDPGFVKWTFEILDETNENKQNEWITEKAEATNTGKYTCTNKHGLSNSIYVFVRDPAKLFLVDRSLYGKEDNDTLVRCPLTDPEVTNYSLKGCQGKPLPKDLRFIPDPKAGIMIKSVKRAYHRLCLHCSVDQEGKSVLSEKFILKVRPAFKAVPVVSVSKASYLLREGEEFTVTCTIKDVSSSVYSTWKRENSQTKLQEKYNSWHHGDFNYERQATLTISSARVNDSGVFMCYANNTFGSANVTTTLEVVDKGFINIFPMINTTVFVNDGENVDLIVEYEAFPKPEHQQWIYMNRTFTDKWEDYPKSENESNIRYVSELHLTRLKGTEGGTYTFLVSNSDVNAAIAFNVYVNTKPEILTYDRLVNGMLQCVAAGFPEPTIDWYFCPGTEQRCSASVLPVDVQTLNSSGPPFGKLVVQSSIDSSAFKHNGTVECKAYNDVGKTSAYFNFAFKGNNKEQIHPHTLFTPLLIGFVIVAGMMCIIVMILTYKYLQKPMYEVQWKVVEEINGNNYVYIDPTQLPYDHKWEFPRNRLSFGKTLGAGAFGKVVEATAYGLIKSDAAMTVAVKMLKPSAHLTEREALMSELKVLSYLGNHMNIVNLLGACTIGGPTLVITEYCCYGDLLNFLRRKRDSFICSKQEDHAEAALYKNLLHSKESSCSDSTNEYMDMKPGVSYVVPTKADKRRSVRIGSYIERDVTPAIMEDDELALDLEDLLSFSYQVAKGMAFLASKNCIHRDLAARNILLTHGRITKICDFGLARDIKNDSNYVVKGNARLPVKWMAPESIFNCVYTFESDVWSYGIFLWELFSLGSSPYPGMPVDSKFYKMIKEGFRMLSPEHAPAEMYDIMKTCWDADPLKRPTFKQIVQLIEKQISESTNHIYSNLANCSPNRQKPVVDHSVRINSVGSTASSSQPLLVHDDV
Sequence of UniProt Q13557 (whole entry, looked up): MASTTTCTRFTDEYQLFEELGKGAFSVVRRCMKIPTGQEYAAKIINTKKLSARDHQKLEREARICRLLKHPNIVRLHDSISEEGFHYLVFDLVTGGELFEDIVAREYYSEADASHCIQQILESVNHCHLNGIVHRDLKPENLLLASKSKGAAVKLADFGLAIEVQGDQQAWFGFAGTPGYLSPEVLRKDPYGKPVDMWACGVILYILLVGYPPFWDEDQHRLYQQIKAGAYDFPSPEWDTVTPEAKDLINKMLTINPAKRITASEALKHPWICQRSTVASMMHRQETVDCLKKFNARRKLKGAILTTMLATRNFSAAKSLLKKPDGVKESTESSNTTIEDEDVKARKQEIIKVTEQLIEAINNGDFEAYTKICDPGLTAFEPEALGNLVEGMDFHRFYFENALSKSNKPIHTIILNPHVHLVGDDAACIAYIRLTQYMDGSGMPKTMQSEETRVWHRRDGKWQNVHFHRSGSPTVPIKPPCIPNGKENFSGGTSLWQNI
Sequence of UniProt Q15303 (whole entry, looked up): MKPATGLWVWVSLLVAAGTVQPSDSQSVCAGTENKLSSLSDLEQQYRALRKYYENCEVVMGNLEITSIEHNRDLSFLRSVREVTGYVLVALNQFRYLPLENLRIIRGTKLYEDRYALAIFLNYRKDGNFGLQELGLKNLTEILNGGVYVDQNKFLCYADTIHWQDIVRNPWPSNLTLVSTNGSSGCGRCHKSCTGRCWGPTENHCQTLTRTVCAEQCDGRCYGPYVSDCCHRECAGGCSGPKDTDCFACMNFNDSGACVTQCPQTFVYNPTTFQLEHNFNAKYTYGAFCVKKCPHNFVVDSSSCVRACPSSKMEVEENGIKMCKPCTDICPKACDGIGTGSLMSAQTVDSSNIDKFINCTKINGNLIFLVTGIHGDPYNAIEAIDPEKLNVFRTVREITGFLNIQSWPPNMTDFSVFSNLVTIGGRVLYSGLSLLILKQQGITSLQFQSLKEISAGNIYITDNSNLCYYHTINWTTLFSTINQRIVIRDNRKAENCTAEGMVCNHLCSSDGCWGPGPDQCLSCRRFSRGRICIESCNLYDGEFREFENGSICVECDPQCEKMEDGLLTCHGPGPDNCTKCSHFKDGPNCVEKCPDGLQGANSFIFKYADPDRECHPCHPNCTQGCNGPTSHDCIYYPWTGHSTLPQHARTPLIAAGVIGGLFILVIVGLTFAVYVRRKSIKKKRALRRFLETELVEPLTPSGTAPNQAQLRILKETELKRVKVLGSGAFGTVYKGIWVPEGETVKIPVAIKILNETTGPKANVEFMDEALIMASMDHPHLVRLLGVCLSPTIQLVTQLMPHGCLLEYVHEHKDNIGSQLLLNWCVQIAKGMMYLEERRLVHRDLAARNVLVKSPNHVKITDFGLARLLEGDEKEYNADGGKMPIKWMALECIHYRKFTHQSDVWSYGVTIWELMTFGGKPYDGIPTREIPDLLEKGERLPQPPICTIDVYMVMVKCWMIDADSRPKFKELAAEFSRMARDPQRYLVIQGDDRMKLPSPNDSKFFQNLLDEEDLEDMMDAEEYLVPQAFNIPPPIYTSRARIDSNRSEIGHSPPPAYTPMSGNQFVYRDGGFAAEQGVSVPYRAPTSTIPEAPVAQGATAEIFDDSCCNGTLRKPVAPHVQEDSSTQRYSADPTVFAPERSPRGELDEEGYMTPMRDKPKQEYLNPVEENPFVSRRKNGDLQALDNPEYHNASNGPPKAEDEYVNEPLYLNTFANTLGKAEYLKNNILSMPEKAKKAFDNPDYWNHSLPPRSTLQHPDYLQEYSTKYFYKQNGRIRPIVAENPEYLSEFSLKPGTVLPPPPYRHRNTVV
Sequence of UniProt Q9HC98 (whole entry, looked up): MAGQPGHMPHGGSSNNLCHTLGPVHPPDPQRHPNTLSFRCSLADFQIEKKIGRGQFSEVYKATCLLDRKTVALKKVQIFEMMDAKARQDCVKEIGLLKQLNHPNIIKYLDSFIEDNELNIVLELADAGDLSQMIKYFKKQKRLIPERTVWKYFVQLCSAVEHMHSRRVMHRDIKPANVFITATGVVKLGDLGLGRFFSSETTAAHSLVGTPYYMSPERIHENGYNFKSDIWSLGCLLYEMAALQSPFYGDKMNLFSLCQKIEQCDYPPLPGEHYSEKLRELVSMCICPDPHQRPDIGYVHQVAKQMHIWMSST
Sequence of UniProt Q9M1R4 (whole entry, looked up): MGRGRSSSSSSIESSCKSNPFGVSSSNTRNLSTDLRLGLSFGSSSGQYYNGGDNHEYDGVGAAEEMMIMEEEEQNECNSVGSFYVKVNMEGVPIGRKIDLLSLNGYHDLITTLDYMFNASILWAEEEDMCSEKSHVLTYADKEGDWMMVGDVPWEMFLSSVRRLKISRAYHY
Sequence of UniProt Q8N568 (whole entry, looked up): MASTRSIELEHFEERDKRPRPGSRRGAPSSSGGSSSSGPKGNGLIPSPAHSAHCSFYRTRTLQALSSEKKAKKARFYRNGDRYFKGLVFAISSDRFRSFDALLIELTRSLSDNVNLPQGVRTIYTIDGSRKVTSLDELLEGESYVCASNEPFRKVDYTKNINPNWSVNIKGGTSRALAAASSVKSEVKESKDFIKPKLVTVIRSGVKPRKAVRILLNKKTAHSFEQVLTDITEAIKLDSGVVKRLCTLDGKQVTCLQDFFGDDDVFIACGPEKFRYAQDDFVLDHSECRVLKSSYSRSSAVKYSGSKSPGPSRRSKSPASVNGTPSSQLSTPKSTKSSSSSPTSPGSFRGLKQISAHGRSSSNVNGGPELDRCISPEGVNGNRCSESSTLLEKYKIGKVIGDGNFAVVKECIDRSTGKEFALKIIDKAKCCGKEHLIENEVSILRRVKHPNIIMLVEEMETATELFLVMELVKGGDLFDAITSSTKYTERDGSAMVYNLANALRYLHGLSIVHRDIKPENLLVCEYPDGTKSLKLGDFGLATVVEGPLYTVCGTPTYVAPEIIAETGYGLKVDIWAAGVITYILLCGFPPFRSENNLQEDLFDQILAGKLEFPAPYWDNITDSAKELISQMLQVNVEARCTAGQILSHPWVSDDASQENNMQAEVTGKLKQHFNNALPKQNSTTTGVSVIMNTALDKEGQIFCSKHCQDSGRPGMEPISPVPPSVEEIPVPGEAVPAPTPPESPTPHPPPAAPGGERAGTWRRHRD
Sequence of UniProt P07948 (whole entry, looked up): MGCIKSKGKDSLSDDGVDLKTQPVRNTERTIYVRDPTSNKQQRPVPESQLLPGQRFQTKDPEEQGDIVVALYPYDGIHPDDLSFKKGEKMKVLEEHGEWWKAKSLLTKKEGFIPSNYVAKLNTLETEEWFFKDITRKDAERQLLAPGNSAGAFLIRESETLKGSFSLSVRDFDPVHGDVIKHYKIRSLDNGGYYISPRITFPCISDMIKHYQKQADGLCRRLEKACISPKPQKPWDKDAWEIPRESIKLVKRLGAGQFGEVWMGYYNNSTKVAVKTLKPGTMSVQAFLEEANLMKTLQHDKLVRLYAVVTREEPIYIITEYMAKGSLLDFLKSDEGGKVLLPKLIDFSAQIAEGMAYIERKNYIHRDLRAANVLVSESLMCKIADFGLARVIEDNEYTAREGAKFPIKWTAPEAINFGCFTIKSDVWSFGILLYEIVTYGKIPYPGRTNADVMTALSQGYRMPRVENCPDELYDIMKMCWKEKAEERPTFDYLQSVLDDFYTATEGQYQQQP

Set 1
Target: Dual specificity protein kinase CLK3 (CLK3, Homo sapiens, UniProt P49761)
Sequence of UniProt P49761 (whole entry, looked up): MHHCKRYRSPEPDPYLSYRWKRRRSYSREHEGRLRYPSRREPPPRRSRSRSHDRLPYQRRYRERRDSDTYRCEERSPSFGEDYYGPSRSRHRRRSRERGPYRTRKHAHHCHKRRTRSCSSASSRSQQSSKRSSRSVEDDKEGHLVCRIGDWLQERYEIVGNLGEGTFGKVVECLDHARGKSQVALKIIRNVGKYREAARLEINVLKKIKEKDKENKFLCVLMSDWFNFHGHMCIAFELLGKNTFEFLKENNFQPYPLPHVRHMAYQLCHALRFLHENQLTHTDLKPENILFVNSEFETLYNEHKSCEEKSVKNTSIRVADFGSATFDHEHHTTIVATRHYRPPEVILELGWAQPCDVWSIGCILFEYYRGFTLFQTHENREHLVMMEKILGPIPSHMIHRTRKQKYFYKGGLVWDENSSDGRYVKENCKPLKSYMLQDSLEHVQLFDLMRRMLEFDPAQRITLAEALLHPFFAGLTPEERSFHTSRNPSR
Effect on: enzyme activity
Action: inhibitor
Tested at: 0.5 µM
Baseline: control
`O=C1NC(=O)C(c2cn(CCCn3ccnc3)c3ccccc23)=C1Nc1ccccc1` has a remaining activity of 93.9%.
`COc1ccc(CNC(=O)Nc2ncc([N+](=O)[O-])s2)cc1` gave a remaining activity of 93%.
`O=C(O)c1ccc2c3c1cccc3c(=O)n1c3ccccc3nc21` has a remaining activity of 95.4%.
The remaining activity of `C#Cc1cccc(Nc2ncnc3cc(OCCOC)c(OCCOC)cc23)c1` is reported as 108%.
`Nc1ccc2ncnc(NCCc3ccc(Oc4ccccc4)cc3)c2c1` has a remaining activity of 117%.
With `N#CC(C#N)=C(N)/C(C#N)=C/c1ccc(O)cc1` the remaining activity was 100%.
For `COc1cc2ncnc(Nc3ccc(F)c(Cl)c3)c2cc1OCCCN1CCOCC1`, the remaining activity was 106%.
The remaining activity of `Nc1ncnc2n[nH]c(Nc3ccc(F)cc3)c12` is reported as 112%.
`O=c1c2ccccc2[nH]c(=S)n1CCN1CCC(=C(c2ccc(F)cc2)c2ccc(F)cc2)CC1` gave a remaining activity of 101%.
`COc1cc2nccc(Oc3ccc(NC(=S)NC(=O)c4ccccc4C)cc3)c2cc1OC` has a remaining activity of 93.2%.
For `CN(C)c1ccc(C=C2C(=O)Nc3ccccc32)cc1`, the remaining activity was 89.4%.
With `Cn1sc(=O)n(Cc2ccccc2)c1=O` the remaining activity was 83%.
The remaining activity of `CO[C@H]1C[C@@H]2CC[C@@H](C)[C@@](O)(O2)C(=O)C(=O)N2CCCC[C@H]2C(=O)O[C@H]([C@H](C)C[C@@H]2CC[C@@H](O)[C@H](OC)C2)CC(=O)[C@H](C)/C=C(\C)[C@@H](O)[C@@H](OC)C(=O)[C@H](C)C[C@H](C)/C=C/C=C/C=C/1C` is reported as 94.4%.
With `Cn1c2ccccc2c2c3c(c4c5ccccc5n(CCC#N)c4c21)CNC3=O` the remaining activity was 23.1%.

Set 2
Target: Interferon regulatory factor 3, full length, phosphomimetic (IRF3, Homo sapiens, UniProt Q14653, residues 1-427, S386D/S396D/S398D/S402D/T404D/S405D)
Technique: protein-binding microarray
Molecule type: double-stranded DNA, one strand shown
Sample: in vitro
Tested at: 2540 nM top
Notes: 60-bp whole probe
Added: salmon DNA 0.4 mg/ml
Baseline: random background probes
Direction: higher = stronger binding
Constant ends, left off below: GCCTAGCAC … GTCTTGATTCGCTTGACGCTGCTG
Construct (chain): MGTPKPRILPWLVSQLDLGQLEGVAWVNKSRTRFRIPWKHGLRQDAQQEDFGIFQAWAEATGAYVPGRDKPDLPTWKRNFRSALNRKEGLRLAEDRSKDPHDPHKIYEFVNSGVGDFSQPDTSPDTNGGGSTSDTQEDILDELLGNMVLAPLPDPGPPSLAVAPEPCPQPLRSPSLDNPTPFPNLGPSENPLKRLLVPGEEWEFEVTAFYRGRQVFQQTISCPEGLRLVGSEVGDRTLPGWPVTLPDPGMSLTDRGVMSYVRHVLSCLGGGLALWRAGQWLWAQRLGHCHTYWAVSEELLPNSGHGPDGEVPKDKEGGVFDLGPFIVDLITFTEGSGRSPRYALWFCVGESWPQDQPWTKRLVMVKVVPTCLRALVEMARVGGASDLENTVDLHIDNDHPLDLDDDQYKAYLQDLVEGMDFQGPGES
For `GACGGTTTCGGGTCTGGGGACGTGCTA`, “fitted relative affinity” read 5.9 z-score.
Under “fitted relative affinity”, `GACGGTATCGGTTTCGGGACGTGCTAG` is recorded as 7.29 z-score.
`TCACACACCATTCTCGGACTGTGCTAG` — result for “fitted relative affinity”: 1.82 z-score.
`TGAAAACTAAGTTTATTAGAGTGCTAG`: “fitted relative affinity” -0.0711 z-score.
`GACGGTTTCCTTATCCTGAGGTGCTAG`: “fitted relative affinity” 8.09 z-score.
For `TCTCTCCCTTTATCTCTTTTGTGCTAG`, “fitted relative affinity” read 2.93 z-score.
Under “fitted relative affinity”, `GACGATAGCAGTATCGAGACGTGCTAG` is recorded as -0.148 z-score.
`TTAGCTCTCCTTTTCCTTTAGTGCTAG` — result for “fitted relative affinity”: 4.04 z-score.

Set 3
Structure (SMILES): CC(=O)C1=C(C)N(c2cccc(C(F)(F)F)c2)C(=O)N[C@@H]1c1ccc(C#N)nc1
Technique: competition with immobilised ligand
Tested at: 1 µM
It gave 100% for remaining binding (ABL2 (Homo sapiens, UniProt P42684); cell-free assay).
NEK6 (Homo sapiens, UniProt Q9HC98); cell-free assay — remaining binding: 100%.
For STK39 (Homo sapiens, UniProt Q9UEW8); cell-free assay: remaining binding read 90.8%.
NTRK3 (Homo sapiens, UniProt Q16288); cell-free assay — remaining binding: 100%.
The remaining binding was 90.8% (ERBB4 (Homo sapiens, UniProt Q15303); cell-free assay).
For DCLK2 (Homo sapiens, UniProt Q8N568); cell-free assay: remaining binding read 88%.
KIT (Homo sapiens, UniProt P10721, V559D); cell-free assay — remaining binding: 100%.
FGFR3 (Homo sapiens, UniProt P22607); cell-free assay — remaining binding: 96.4%.
Cyclin-dependent kinase 4, with cyclin D3 (CDK4, Homo sapiens, UniProt P11802); cell-free assay — remaining binding: 79.4%.
The remaining binding was 100% (FLT3 (Homo sapiens, UniProt P36888); cell-free assay).
The remaining binding was 100% (LYN (Homo sapiens, UniProt P07948); cell-free assay).
The remaining binding was 100% (CAMK2D (Homo sapiens, UniProt Q13557); cell-free assay).
STK38L (Homo sapiens, UniProt Q9Y2H1); cell-free assay — remaining binding: 93.6%.
GRK1 (Homo sapiens, UniProt Q15835); cell-free assay — remaining binding: 99.2%.
IRAK3 (Homo sapiens, UniProt Q9Y616); cell-free assay — remaining binding: 100%.
The remaining binding was 85.7% (ACVR2A (Homo sapiens, UniProt P27037); cell-free assay).
It gave 100% for remaining binding (Tyrosine-protein kinase ABL1, non-phosphorylated (ABL1, Homo sapiens, UniProt P00519, F317I); binding).
The remaining binding was 83.8% (Mast/stem cell growth factor receptor Kit, autoinhibited (KIT, Homo sapiens, UniProt P10721); cell-free assay).

Set 4
Sequence: B1 (IAA2)
Technique: two-hybrid
Baseline: out of 4 tests
Direction: higher = firmer interaction
T1: itself; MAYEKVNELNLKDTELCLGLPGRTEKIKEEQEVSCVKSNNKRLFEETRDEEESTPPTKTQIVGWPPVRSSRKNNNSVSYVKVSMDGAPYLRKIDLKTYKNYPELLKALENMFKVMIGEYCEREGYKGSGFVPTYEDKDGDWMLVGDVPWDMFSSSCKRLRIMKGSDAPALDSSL
B1: IAA2 (Arabidopsis thaliana, UniProt P49678); chain MAYEKVNELNLKDTELCLGLPGRTEKIKEEQEVSCVKSNNKRLFEETRDEEESTPPTKTQIVGWPPVRSSRKNNNSVSYVKVSMDGAPYLRKIDLKTYKNYPELLKALENMFKVMIGEYCEREGYKGSGFVPTYEDKDGDWMLVGDVPWDMFSSSCKRLRIMKGSDAPALDSSL
ARF1 538-665 (Arabidopsis thaliana, UniProt Q8L7G0) — positive tests: 0.
T1, itself — positive tests: 2.
The positive tests was 2 (IAA30 (Arabidopsis thaliana, UniProt Q9M1R4); weak activation fusion).
The positive tests was 2 (IAA15 (Arabidopsis thaliana, UniProt Q9C966)).
ARF7 1030-1164 (Arabidopsis thaliana, UniProt P93022) — positive tests: 3.
IAA3 (Arabidopsis thaliana, UniProt Q38822) — positive tests: 4.
